Assay results gathered from unrelated publications.
Each line is one published result; not all experiments were run side by side. Numbers after ± are the reported error.

| SMILES | system | setting | Cmax |
| --- | --- | --- | --- |
| CC(C)c1nc(N(C)S(C)(=O)=O)nc(-c2ccc(F)cc2)c1/C=C/[C@@H](O)C[C@@H](O)CC(=O)O | human, plasma | oral, 10 mg, added: vepdegestrant 200 mg | 2.6 ng/mL |
| O=C(O)CCCCCCCCC(=O)O | human, plasma | concentration not given, endogenous baseline diurnal | 66.2 ± 9.9 nM |
| CCNCc1cc(Nc2ccnc3cc(Cl)ccc23)ccc1O | human, both sexes, plasma | oral, dose not given, non-fixed combination | 875 ng/mL |
| O=C(O)C[C@H](O)C[C@H](O)/C=C/c1c(C2CC2)nc2ccccc2c1-c1ccc(F)cc1 | OATP1B1/1B3 humanized mouse, plasma | oral, 5 mg/kg, added: silymarin 500 mg/kg oral | 579 nM |
| N#Cc1ccc(C(c2ccc(C#N)cc2)n2cncn2)cc1 | human | 125 mg | 31.6 ng/mL |
| NC1(C(=O)N[C@@H](CCO)c2ccc(Cl)cc2)CCN(c2nc[nH]c3nccc2-3)CC1 | human patients, plasma | dose not given, cohort 160/400, cycle 2, geometric mean | 522 ng/mL |
| CCCCOc1nc(N)c2c(n1)N(Cc1cccc(CN3CCCC3)c1)CC(=O)N2 | human HIV patients on ART | oral, 2 mg, mean | 1.13 ng/mL |
| Cc1cc(Nc2cc3ncccc3c(N[C@@H]3C[C@H]4CC[C@@H](C3)N4CCC#N)n2)n[nH]1 | human, plasma | 270 mg, day 14, geometric mean | 12.1 ng/mL |
| COc1cc(Nc2c(C#N)cnc3cc(OCCCN4CCN(C)CC4)c(OC)cc23)c(Cl)cc1Cl | human, moderate hepatic impairment (Child-Pugh), plasma | single dose, geometric mean, total drug | 64.3 ng/mL |
| O=C(NCCN1CCCC1)c1cc(-c2ccc(CN3CCOCC3)cc2)nc2ccc(F)cc12 | human, whole blood | oral, 2100 mg | 1240 ng/mL |
| CN1CC[C@@H](NC(=O)Nc2ccc(C#N)cc2)C[C@@H]1c1nc2ccccc2[nH]1 | human | oral, 100 mg, cycle 1 day 21, given alone | 1060 ng/mL |
| COc1ccc2[nH]c([S@+]([O-])Cc3ncc(C)c(OC)c3C)nc2c1 | human, dried blood spots | oral, 10 mg omeprazole, control arm | 80 ng/mL |
| CN(C)C(=O)c1cc2cnc(Nc3ccc(N4CCNCC4)cn3)nc2n1C1CCCC1 | human, expansion cohort, plasma | oral, 800 mg, day 8, added: gemcitabine 1000 mg/m^2 | 1990 ± 1140 ng/mL |
| CN(CC#N)C(=O)C[C@H](Nc1nc2ccccc2[nH]1)c1cccc(C(F)(F)F)c1 | human | intravenous infusion, 5 mg/kg, 1 mg/mL formulation | 8010 ± 1480 ng/mL |
| CO[C@H]1C[C@@H]2CC[C@@H](C)[C@@](O)(O2)C(=O)C(=O)N2CCCC[C@H]2C(=O)O[C@H]([C@H](C)C[C@@H]2CC[C@@H](OC(=O)NCCOCCOCCOCCOCCOCCOCCOCCOCCC(=O)N3CCc4cc(Cn5nc(-c6ccc7oc(N)nc7c6)c6c(N)ncnc65)ccc4C3)[C@H](OC)C2)C[C@@H](O)[C@H](C)/C=C(\C)[C@@H](O)[C@@H](OC)C(=O)[C@H](C)C[C@H](C)/C=C/C=C/C=C/1C | human patients, plasma | intravenous, 10 mg, cycle 1 day 1, 2 h infusion | 205 ng/mL |
| Cn1cncc1[C@@](N)(c1ccc(Cl)cc1)c1ccc2c(c1)c(-c1cccc(Cl)c1)cc(=O)n2C | human patients | oral, 200 mg/m2, first dose, cycle 1, median | 853 ng/mL |
| CC1(COc2ccc3c(c2)ncn3-c2ccc3cccc(N4CCC(N)CC4)c3n2)COC1 | human patients, recurrent/progressive HGG or DIPG, serum | oral, 100 mg/m^2, day 1, median | 431 nM |
| Cc1cc(-c2nnc(N)nc2-c2ccc(F)cc2)cc(Cl)n1 | human patients, plasma | oral, 75 mg capsule once daily, multiple doses, arithmetic mean | 538 ng/mL |
| Cl.O=C(NC1CCOCC1)c1csc([C@@H]2C[C@H]2NCC2CC2)c1 | human, fed, plasma | oral, 30 mg single dose | 98.7 ng/mL |
| CC(C)(Sc1ccncc1-c1ccc(C#N)c2ccccc12)C(=O)O | human, plasma | oral, 10 mg once daily, added: febuxostat 0 mg | 34.8 ng/mL |

Some of these lines once more:
| SMILES | system | setting | Cmax |
| --- | --- | --- | --- |
| CN1CC[C@@H](NC(=O)Nc2ccc(C#N)cc2)C[C@@H]1c1nc2ccccc2[nH]1 | human | oral, 100 mg, cycle 1 day 21, given alone | 1060 ng/mL |
| CC(C)(Sc1ccncc1-c1ccc(C#N)c2ccccc12)C(=O)O | human, plasma | oral, 10 mg once daily, added: febuxostat 0 mg | 34.8 ng/mL |
